Measured values pooled from the literature.
Protocols differ between the studies behind these lines. Values joined by “and” are separate records of one study, mostly repeats; a detail may differ. ± gives the spread as reported.

COc1cc(C(=O)COC(=O)CCCN)ccc1O  singlet lifetime (pump-probe transient absorption; 10% acetonitrile in water): 4.6 ps
CC(C)C[C@@H](NC(=O)[C@H](NC(=O)[C@H]1CCCN1)[C@H](C)O)C(=O)N[C@H](Cc1c[nH]cn1)C(=O)N[C@@H](C(=O)N[C@H](Cc1c[nH]cn1)C(=O)N[C@H](CC(N)=O)C(=O)N[C@H](CCCNC(=N)N)C(=O)N[C@H](CCCNC(=N)N)C(=O)N[C@H](CCCNC(=N)N)C(=O)N[C@H](CCCNC(=N)N)C(=O)N[C@H](CCCNC(=N)N)C(N)=O)[C@H](C)O  clearance (beagle dog, plasma; intravenous, 3 mg/kg, single dose): 1.2 mL/min/kg
COc1cc(N(C)CCN(C)C)c(NC(=O)CCSCC(N)C(=O)O)cc1Nc1nccc(-c2cn(C3CC3)c3ccccc23)n1 (stereo not drawn)  excreted amount (radio-HPLC; human, feces; 48 to 96 h, sample holds 20.06% dose; baseline: dose): 0.39%
CCCCCCCC[S+]([O-])CC(=O)C(F)(F)F (stereo not drawn)  hydrate fraction (19F NMR; chloroform): 90 to 96%
CSCOC1C(=O)C2(C)C(OCSC)CC3OCC3(OC(C)=O)C2C(OC(=O)c2ccccc2)C2(O)CC(OC(=O)C(O)C(C=C(C)C)NC(=O)OC(C)(C)C)C(C)=C1C2(C)C (stereo not drawn)  half-life (male Sprague-Dawley rat, plasma; intravenous, 4 mg/kg): 7.9 h
N=C(N)NCCC[C@@H]1NC(=O)[C@H](Cc2c[nH]c3ccccc23)NC(=O)[C@@H](CC2CCCCC2)NC(=O)[C@@H]2CCCN2C(=O)[C@@H](NC(=O)CCc2ccccc2)CCCNC1=O  apparent total clearance (CL/F) (C57BL/6J mice, brain; intraperitoneal, 1 mg/kg, two-compartment model): 1.27 ng/(min·ng/g)
CCCC[C@H](NC(=O)CNC(=O)CNC(=O)CN1CCN(CC(=O)O)CCN(CC(=O)O)CCN(CC(=O)O)CC1)C(=O)N[C@H]1CC(=O)NCCCC[C@@H](C(N)=O)NC(=O)[C@H](Cc2c[nH]c3ccccc23)NC(=O)[C@H](CCCNC(=N)N)NC(=O)[C@@H](Cc2ccccc2)NC(=O)[C@H](Cc2c[nH]cn2)NC1=O [copper-64 labelled]  tissue uptake (female C57 mouse, B16/F1 melanoma, liver; intravenous, 0.037 MBq, 2 h): 10.3 ± 1.18 %ID/g
C#CCN(CCCNC(=O)CCCCC[N+]1=C(/C=C/C2=C(Cl)C(=C/C=C3\N(CCCCCC(=O)[O-])c4ccccc4C3(C)C)/CCC2)C(C)(C)c2ccccc21)CCCOc1ccc(Cl)cc1Cl  concentration (mouse plasma; 1 µg/mL nominal, 4 h, on ice): 940 ± 100 ng/mL
NC(=O)[C@@H](CCCCNC(=O)CNC(=O)CCC(=O)NCCc1c[nH]cn1)NC(=O)[C@@H](CCC(=O)O)NC(=O)[C@@H](CCCCNC(=O)CNC(=O)CCC(=O)NCCc1c[nH]cn1)NC(=O)[C@@H](Cc1ccc(O)cc1)NC(=O)CN1CCN(CC(=O)O)CCN(CC(=O)O)CCN(CC(=O)O)CC1 [indium-111 labelled]  tumour activity concentration (SPECT; human, CEACAM5-expressing tumours, tumour; intravenous, dose not given, 24 h, with: TF2 pretargeting 75 mg): 4.4 %ID/kg
CN(C)C(CNC(=O)Nc1cc(C(F)(F)F)ccc1N1CCOCC1)c1ccncc1 (stereo not drawn)  recovery (plasma protein binding; human, plasma; time not given): 117%
CC(C)[C@H](NC(=O)[C@@H]1CCCN1C(=O)[C@H](CCCNC(=N)N)NC(=O)[C@H](CS)NC(=O)[C@H](Cc1c[nH]c2ccccc12)NC(=O)[C@H](CCCNC(=N)N)NC(=O)[C@@H](Cc1ccccc1)NC(=O)[C@H](Cc1c[nH]cn1)NC(=O)[C@H](CCC(=O)O)NC(=O)[C@H](CS)NC(=O)[C@H](CS)NC(=O)[C@@H]1CC(=O)N[C@@H](CCCNC(=N)N)C(=O)NCC(=O)N[C@@H](CC(=O)O)C(=O)N[C@H](Cc2ccc(O)cc2)C(=O)N1)C(N)=O [technetium-99m labelled]  tumour to tissue ratio (C57 mouse, female, B16/F1 melanoma; intravenous, 0.037 MBq, 4 h; baseline: tumour over lung): 19.2
Cc1ccc(OCC(=O)O)cc1  t1/2 (Sprague-Dawley rat, male, plasma; oral, 10 mg/kg/day of parent drug, day 1, 90-day repeated dosing): 1.63 h
[11CH3]c1ccc2nc(C3CCC3)n(-c3ccc4[nH]ncc4c3)c2n1  uptake ratio (ddY mouse, lungs; baseline: 1 min over 60 min): 10.5
Cn1c(=O)oc2ccc(-c3ccc(CC(C#N)NC(=O)C4CNCCCO4)c(F)c3)cc21 (stereo not drawn)  treatment-emergent adverse event incidence (item: alanine aminotransferase increased; human volunteers; oral): 11.1%
CC(C)[C@H](NC(=O)CNC(=O)[C@H](CCC(N)=O)NC(=O)[C@H](C)N)C(=O)O  clearance (LC-MS/MS; human, male, plasma; intravenous, 30 mg/kg three times daily, day 1, first dose, 10 min infusion, geometric mean): 767 mL/min/kg
O=C(OCc1cccc(O)c1O)c1ccc(O)c(CO)c1  toxicity (mice; intraperitoneal, 5 mg/kg/day, 14 days): not toxic
CC[C@@H](C)[C@H]1NC(=O)[C@@H]([C@H](C)O)NC(=O)[C@@H](Cc2c[nH]cn2)NC(=O)CNC(=O)[C@@H](CCCNC(=N)N)NC(=O)CNC(=O)[C@@H](Cc2ccccc2)NC1=O  concentration (New Zealand white rabbit, female, vitreous; ocular, 50 µL eye drop, 24 h): ~13.9 nM
CC(C)c1cnc(-c2cc(Cl)ccc2F)cc1Nc1ccncc1C(=O)NC(CO)CO  patients with treatment-related adverse event (monotherapy, item: diarrhoea; human patients; oral, dose not given, grade 3, phase I A): 0%
COCCOCCOCCOCCC(=O)NCc1cc(CNC(=O)CCOCCOCCOCCOC)cc(-c2cc3cc4nc(c(-c5ccc(CCC(=O)O)cc5)c5[nH]c(cc6nc(c(OC)c2[nH]3)CC6(C)C)cc5-c2cc(CNC(=O)CCOCCOCCOCCOC)cc(CNC(=O)CCOCCOCCOCCOC)c2)CC4(C)C)c1  singlet excited-state lifetime (water with 5% DMF; room temperature): 3.29 ns
COc1ccc(-c2csc(N/N=C(\C)c3cc(O)cc(O)c3)n2)cc1  concentration after storage (LC-MS/MS; rat plasma; 1000 ng/mL, freeze-thaw 5 cycles at 20 °C): 956 ng/mL
CCOc1ccc(Cc2cc(C3OC(SC)C(O)C(O)C3OC3OC(C(=O)O)C(O)C(O)C3O)ccc2Cl)cc1 (stereo not drawn)  AUC(tau) dose ratio (human, plasma; oral, 400 mg once daily, sotagliflozin, day 8; baseline: 200 mg dose): ~1.85 fold
CC(CCCOC(=O)CCC[N+](C)(C)C)C1CCC2C3CCC4CC(OC(=O)CCC[N+](C)(C)C)CCC4(C)C3CC(OC(=O)CCC[N+](C)(C)C)C12C (stereo not drawn)  HC50 (mouse red blood cells; 1 h, 37 °C): > 1000 µg/mL
C[C@H](Oc1cc(-c2cnn(C3CCN(CC[18F])CC3)c2)cnc1N)c1c(Cl)ccc(F)c1Cl  tracer uptake (PET imaging; nude mouse, heart; iv, 10 min post injection): 3.6 ± 0.8 %ID/cc
C[C@H](NC(=O)COC(=O)[C@H](C)NC(=O)CO)C(=O)O  depolymerization half-life (water; pH 4, 25 °C): 146 h
NC(=O)[C@H](Cc1ccccc1)N[11C](=O)OCc1ccccc1  intact tracer (male Wistar rats, brain supernatant; intravenous, 15 min): 97% and 97.3%
N=C(N)NCCC[C@H](NC(=O)CON=C[C@H](F)[C@@H](O)[C@H](O)[C@H](O)CO)C(=O)NCC(=O)N[C@@H](CC(=O)O)C(=O)O [fluorine-18 labelled]  tissue ratio (nude mice, U-87 MG xenograft; intravenous, 2 h; baseline: tumour over blood): 13.3 ± 1.05
CC(C)(O)c1ncc([S@](N)(=O)=NC(=O)Nc2c3c(cc4c2CCC4)CCC3)s1  AUC(0-last) (healthy human fasted, plasma; oral, 300 mg single dose, CS formulation): 63000 ng·h/mL
Oc1ccc2ccccc2c1/N=N/c1ccc(/N=N/c2ccccc2)cc1  measured concentration (rat whole blood QC samples; 16.0 µg/L, 12 h, room temperature, short-term stability): 16.1 µg/L
CC(=O)N[C@H](CC(=O)O)C(=O)N[C@H](Cc1c[nH]c2ccccc12)C(=O)N[C@H](Cc1ccccc1)C(=O)N[C@H](CCCCN)C(=O)N[C@H](C)C(=O)N[C@H](Cc1ccccc1)C(=O)N[C@H](Cc1ccc(O)cc1)C(=O)N[C@H](CC(=O)O)C(=O)N[C@H](CCCCN)C(=O)N[C@@H](C(=O)N[C@H](C)C(=O)N[C@H](CCC(=O)O)C(=O)N[C@H](CCCCN)C(=O)N[C@H](Cc1ccccc1)C(=O)N[C@H](CCCCN)C(=O)N[C@H](CCC(=O)O)C(=O)N[C@H](C)C(=O)N[C@H](Cc1ccccc1)C(N)=O)C(C)C  Cmax (statin-treated high-risk CHD women, plasma; oral, 100 mg daily, day 1, 0 to 2 h, mean, detected subjects): 6.05 ng/mL
COc1ccc(C=NCCCN(C)CCN(C)CCCN=Cc2ccc(OC)cc2[O-])c([O-])c1.[67Ga+3]  tissue uptake ratio (rat; intravenous, 1 min; baseline: heart over blood): 4 ± 0.4
CC12CC(c3ccc(S(C)(=O)=O)cc3)C3=C4CCC(=O)C=C4CCC3C1CCC2(O)C(F)(F)C(F)(F)F (stereo not drawn)  excreted amount in urine (human; oral, 5 mg, mean of six subjects; baseline: dose): 0.1%
O=C(Cc1ccc2ccccc2c1)N[C@H](Cc1ccc(O)cc1)C(=O)N[C@H](Cc1ccccc1)C(=O)N[C@H](Cc1ccccc1)C(=O)N[C@H](Cc1ccc(OP(=O)(O)O)cc1)C(=O)O  gelation time (substrate, rheology; hydrogel; 0.5 wt%, with: alkaline phosphatase 0.05 U/mL): 0.3 h
CN(CCCN=Cc1ccccc1[O-])CCN(C)CCCN=Cc1ccccc1[O-].[67Ga+3]  tissue uptake ratio (rat; intravenous, 1 min; baseline: heart over lung): 2.13 ± 0.12
O=C(CCc1ccc(CNC(C(=O)O)C2CCCCC2)cn1)NO (stereo not drawn)  AUC(tau) (human, plasma; oral, 20 mg once daily, day 1, geometric mean): 137 ng·h/mL
COc1cc(NC(C)=O)c2c(c1O)-c1c(OC)c(OC)cc3c1C(C2)N(C)CC3 (stereo not drawn)  remaining compound (rat lung homogenate; 100 µg/mL, 4 h, room temperature, short-term storage): 94.6 ± 3.9%
NC12CNCCNCC(NCc3ccc(CNC(=O)CCCC(=O)NCc4ccc(-c5nncnn5)cc4)cc3)(CNCCNC1)CNCCNC2.[64Cu+2]  mean absorbed dose (OLINDA dosimetry; thyroid; 48 h pretargeting interval, with: huA33-TCO pretargeting): 0.0328 rad/mCi
CC(C)CCCC(C)CCCC(C)CCO[C@@H]1O[C@H](CO)[C@@H](O[C@H]2O[C@H](CO)[C@@H](O)[C@H](O)[C@H]2O)[C@H](O)[C@H]1O (stereo partly drawn)  interfacial tension (drop shape tensiometry; water/n-octane; 0.01 wt%, 100 s): < 1 mN/m
C=CC(=O)Nc1cc(Nc2nccc(-c3cn(C4CC4)c4ccccc34)n2)c(OC)cc1N(C)CCNC  excreted amount (radio-HPLC; human male, feces; oral, 110 mg, 48 to 96 h, sample holds 20.06% dose; baseline: dose): 3.44%
CC(=O)[CH](C(C)=O)[Pt-2]1([S+](C)C)[O]C(C)=CC(C)=[O+]1 (stereo not drawn)  total protein (rat, blood; intravenous, 20 mg/kg, single dose): 5.01 ± 5.3 g/dL
O=C(O)C1OC(OC2C(COS(=O)(=O)O)OC(OC3C(C(=O)O)OC(OC4C(COS(=O)(=O)O)OC(OC5C(C(=O)O)OC(OC6C(COS(=O)(=O)O)OC(OC7C(C(=O)O)OC(OC8C(COS(=O)(=O)O)OC(OC9C(C(=O)O)OC(OC%10C(COS(=O)(=O)O)OC(OC%11C(C(=O)O)OC(Oc%12ccc([N+](=O)[O-])cc%12)C(O)C%11O)C(NS(=O)(=O)O)C%10O)C(OS(=O)(=O)O)C9O)C(NS(=O)(=O)O)C8O)C(OS(=O)(=O)O)C7O)C(NS(=O)(=O)O)C6O)C(OS(=O)(=O)O)C5O)C(NS(=O)(=O)O)C4O)C(OS(=O)(=O)O)C3O)C(NS(=O)(=O)O)C2OS(=O)(=O)O)C(O)C(O)C1OC1OC(COS(=O)(=O)O)C(O)C(O)C1NS(=O)(=O)O (stereo not drawn)  alanine aminotransferase (rats, serum; intravenous, 3600 µg/kg/day for 7 days, day 8): 38.6 ± 2.4 U/L
Nc1ncnc2c1nc(-n1nnc3c1CCC1C(CO)C1CC3)n2C1CC(O)C(CO)O1 (mixture of isomers)  fluorescence lifetime τ3 (frequency-domain fluorometry; methanol): 5.6 ns
COc1cc2c(cc1OC)CN(CCCCn1ccc3cc(OCC[18F])ccc31)C2  bone uptake (male ICR mice; intravenous, 280 kBq, 120 min post-injection): 6.49 ± 1.23 %ID/g

Repeated from above:
CN(CCCN=Cc1ccccc1[O-])CCN(C)CCCN=Cc1ccccc1[O-].[67Ga+3]  tissue uptake ratio (rat; intravenous, 1 min; baseline: heart over lung): 2.13 ± 0.12
CC(C)(O)c1ncc([S@](N)(=O)=NC(=O)Nc2c3c(cc4c2CCC4)CCC3)s1  AUC(0-last) (healthy human fasted, plasma; oral, 300 mg single dose, CS formulation): 63000 ng·h/mL
CC(=O)[CH](C(C)=O)[Pt-2]1([S+](C)C)[O]C(C)=CC(C)=[O+]1 (stereo not drawn)  total protein (rat, blood; intravenous, 20 mg/kg, single dose): 5.01 ± 5.3 g/dL
